Measurements pooled from the literature.
A part holds a random share of what one study measured.

Set 1
Target: PABPC1L2, full length, GST fusion (mouse, UniProt A0ABA7IW68)
Method: RNAcompete
Form: RNA
Sample: in vitro
Tested at: 20 nM
Notes: 7-mer, probes averaged, single round
Baseline: mean of 7-mers
Direction: higher = stronger binding
Residues (chain): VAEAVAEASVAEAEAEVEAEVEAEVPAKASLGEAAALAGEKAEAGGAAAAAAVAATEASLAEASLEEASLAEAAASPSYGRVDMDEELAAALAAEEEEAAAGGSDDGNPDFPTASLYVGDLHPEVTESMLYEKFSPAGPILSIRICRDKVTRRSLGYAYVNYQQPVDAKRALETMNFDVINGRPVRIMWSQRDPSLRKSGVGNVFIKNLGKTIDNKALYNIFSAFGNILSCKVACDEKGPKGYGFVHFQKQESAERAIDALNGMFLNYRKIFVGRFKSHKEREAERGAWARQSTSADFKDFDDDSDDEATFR
Oligonucleotide	7-mer Z-score
AACUAGC	-0.0681
UCGAAGG	-0.0899
CGACCUU	-0.175
UGAUCGC	-0.255
UUGUGAG	-0.306
ACAAACC	0.305
GUGCGCU	-0.0409
CUGGCGC	-0.226
GAAGUUU	-0.295
GACUUAU	-0.139
AUGCAAC	-0.0645
GUCCAAG	-0.0736
AUCUGCC	-0.286
GAUUCCU	-0.324
CCACGGU	-0.0935
UCGAGAA	0.184
AGGUGUA	0.135
GUACCUC	-0.342
AUUGUGA	-0.119
AGGCUGC	-0.0844
UAUCACA	-0.0826
CAACGAG	-0.0518
GUGCCAG	-0.0971
CGAUUAU	-0.255
GUAAUUA	-0.142

Set 2
Target: Interferon regulatory factor 5, full length, phosphomimetic (IRF5, Homo sapiens, UniProt Q13568-2, residues 1-514, S451D/S453D/S456D/S462D)
Method: protein-binding microarray
Form: double-stranded DNA, one strand shown
Sample: in vitro
Tested at: 940 nM top
Notes: 60-bp whole probe
Added: salmon DNA 0.4 mg/ml
Baseline: random background probes
Direction: higher = stronger binding
Shared flanks, not repeated: GCCTAGCAC … GTCTTGATTCGCTTGACGCTGCTG
Oligonucleotide	fitted relative affinity [z-score]
CCCCTCTTCTGGATCTCAGAGTGCTAG	0.0418
GACGGACTGGGTTTGGGGACGTGCTAG	-0.297
GACAATTTCAGTTTCGAGACGTGCTAG	4.96
TTAGGTATCGACTCTGGGTTAGTGCTA	5.2
GACGGGCTCGGTCTCGGGACGTGCTAG	0.115
TTAGGAATCCTTATCCTTTAGTGCTAG	0.177
TACGATTTCAGTCTCGAGACGTGCTAG	2.01
CACCAGCGAGGGCCCGGGAGGTGCTAG	-0.946
GACGAACTGAGTTTCGTGACGTGCTAG	1.59
GACGGTTTCGGAATCGGGACGTGCTAG	7.66
GACGCACTGAGTCTCGAGACGTGCTAG	0.808
GACGGATTCGGTCTCGGGACGTGCTAG	1.44
TTAGGACTGCTTATCGTTTAGTGCTAG	-0.212
GACGATCTTAGTATCGAGACGTGCTAG	2.04
TTACATATCGGGTTTCGATTAGTGCTA	5.23
TTAGGTTTCCGGTTTCGGTTAGTGCTA	7.71
TTAGATATCGGGTATCCATTAGTGCTA	0.194
TTAGGACTGCGACTGGGTTAGTGCTAG	-0.355
TCAAATCTCAGCCTCCGACTGTGCTAG	0.415
GACGAACTGGGGACTGGATACGTGCTA	-0.196
GAAAACAAAGAAAATACAAAGTGCTAG	0.104
GACGAACTGGGGTACCGAGACGTGCTA	0.0828
GATGGACTGCTTTTCCTGACGTGCTAG	-0.32

Set 3
Target: RNA binding protein fox-1 homolog 2, RRM domain, GST-SBP tag (RBFOX2, Homo sapiens, UniProt O43251-10, residues 100-194)
Method: RNA Bind-n-Seq
Form: RNA
Sample: in vitro
Tested at: 365 nM
Notes: natural RNA segment, single round, ends assumed
Baseline: no-protein control
Direction: higher = stronger binding
Shared flanks, not repeated: GGGAGUUCUACAGUCCGACGAUC … UGGAAUUCUCGGGUGCCAA
Residues (chain): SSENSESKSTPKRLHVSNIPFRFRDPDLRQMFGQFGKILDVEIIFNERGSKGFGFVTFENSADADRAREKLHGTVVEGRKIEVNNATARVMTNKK
Oligonucleotide	RBNS enrichment (R)
UGCGCAUUGUGCCGUGGGGCUUAGGAUGAGUUGGACACGCGCACUGACAAUGCCUAGGACUGCCUUACUCCCUUCCCUCAGGCCAGUUCCUGGGCCAGCACUAGCCUUGA	2.17
UUUUCUUUGGAUCCCUGUCCAAUAACCUCUGUGGAAUCUCAUUCCCUAAUUGUUGAUACUCAUUUUCUCCGUUUGCAAAAUGAAGAUACUCAUUGUUAGGAUCCUACUGC	0.332
UAAAUCUAAAAUGAAUGACUUUCAAAAAUGGGUUGGUUACCAUGGCAACCUCCAGGAAGAGAUACUCGUUACCCUUCAUUAUUUUCUAGCACUUUUGAACAGUCCCACAG	0.246
GGGGGAGAGGCAGACAUUGCUGCCCACAGACCUGCCUCUGACUCAACUGUGUCCACCCUCCCUGGUCCCUACCCCCAAGUCACAGGUGACUCAGCAGUGACCCUGUGUGC	0.237
AAAAAAAAAAUUGUUUGAGUACAUUUUCCCUGCAUUUUAGAGAUUAGGACAGUGGUCACUUUCUAGUUGCCGUCUUCACAGACAAACUUGAAAGGUAUUAAGGAAAAAAU	0.598
AGGUGUGAUCUACCACUGCCGGGCCCUCAUGUUGCGUUGUGUUCUUAAGUUGAGGAAGAACUGUCUCCUCUUCCACCUUUCUACAGAAUGCCUCUUCUUUACCUCCCGCC	0.37
UCAGGGCCAAGCGGGGGCGUGGCUGGCCCUUCAGGUCAGGCCAGUGGGCCUGGUAGCACAUGUCUGUCCUCAGCCGGACAGAUGCUUUCUCUCCUGGUUUGCAGCUGUCU	1.31
GAGACAUCUUGGCCUCCUAGGCUAAGUUUACUAAACCACACUGAAGCUAUAGUACCUUCCAGAUGGGCAAAAGUGUACACUACAGUUGAGGAGCUGAACCUUAUUAGGUU	0.241
GCCUGCCCCUCUCAACCUUCUGCACCUCUGCCUCCAACUUGUCUCGGGAGAUUGAGUCUGCACAUCACCAGUUGCCAUGUUCACUGGGCCAGUGCCCACCCGUCCACGUU	1.54
UUUAUACUGAAUUGUCAUCAAUCAGUCCUACCAGAUGGAUUUCAACAUUUAAACCUGGAGACUCUUCGUGUCUUGAAUUAGGAUGUUUGUCCAGUAAUAAAAUAUAGAAC	0.803
UUAUGAGGCACCUACCUUCAUUUUGCUAACGCUUAUUCUGAAUAAAAGUUUUUGAUUCCUUAAAGACUCUUUUCUCUUUUGGUUUUUUAUGAGAAACACAGCAUUUGAUC	0.524
UACCCAUCAACAUAAUCACUCUGACAAUGUUCACGCAUUCAACUAUGAGUUCAUAUGUGGAAGAAAACUGGUGUUUUAGUAAAACCAAGUUCUUGACAUUAAUCUGUUGA	0.35

Set 4
Target: RING finger protein unkempt homolog, zinc fingers 1-6, GST-SBP tag (UNK, Homo sapiens, UniProt Q9C0B0, residues 30-357)
Method: RNA Bind-n-Seq
Form: RNA
Sample: in vitro
Tested at: not given
Notes: RNA with constant flanks, human-mouse chimeric sites, ends assumed
Baseline: input RNA pool
Direction: higher = stronger binding
Shared flanks, not repeated: GGGAGUUCUACAGUCCGACGAUC … CAACAGAGGAUUGAGCAUCA
Target sequence (chain): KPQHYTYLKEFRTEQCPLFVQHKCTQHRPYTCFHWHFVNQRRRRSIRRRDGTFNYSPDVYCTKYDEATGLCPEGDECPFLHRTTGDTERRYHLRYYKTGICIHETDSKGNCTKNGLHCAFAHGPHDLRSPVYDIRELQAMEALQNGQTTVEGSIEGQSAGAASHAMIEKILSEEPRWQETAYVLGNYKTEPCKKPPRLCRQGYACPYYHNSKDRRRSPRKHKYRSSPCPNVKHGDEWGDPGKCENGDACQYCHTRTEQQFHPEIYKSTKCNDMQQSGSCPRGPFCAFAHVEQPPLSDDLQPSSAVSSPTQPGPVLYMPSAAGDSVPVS
Oligonucleotide	bound/input enrichment
AAAUCGUGUGUGUCAAAUAUUGAAAGUGCUUUAUCUACACUCCAGUAUGUAAGCAGUAUAGUAGUUUCUUUAGAGAAUAGGUCAGCCAUUGUGAAGUACAAUGCAAGCUUAGUCACUCCA	11.5 ratio
AACAGAUUGUCUUUAAGCAUUCCAAGCGAGAAUGCUGGGGUGAUCAUUGUUGCCCAUGUGCCUUCUGACUGAGCUUUUAAUUAAUUGCAUGUUACAUCUUUCCUUCACUCCAGAAUUGUU	0.261 ratio
AACUUCGUGCAUCGGUUUCCUUUUGUAGCUGUUUCAAUUGGCUUCCUUGUGAAUAAAGAGAUGGAGUUUGGAAUUGUGUACAGCUGUGUGGAAGAUAAGAUGUACACCGGCAGGAAAGGG	0.487 ratio
CACAGAGCAGCACCUACCCCCUCCUCCUUUCCACACCUGCAAACUCUUUUGCCUGGGCUGAAUAUUUAGUGUAAUUACAUCUCAGCUUUUGAGGGCUCUGUGGCAAAUUCCCGGAUUAAA	0.577 ratio
UGGCGCCUCCCAUUUUUACUCGUGUUUUUAAGUGUAUUUUUAUAAGAUACAUGUAUUUACAAUUGAGCUUUUGUUACAUAAUGCUGAAAUGCUACUGGAGAUUAUGAAAAAUGUUUCAAU	0.17 ratio
AAUUUCCUGUCAUACUUUUUAGACAUUGCCAUAGGUAGCCUUACUACCCUGGCCACAUUCUAGGUUUGUGUUAUUUCUCAGCUAUGGAUAUGAUCAAAUGAGAACACUGCUUAACUAAUG	1.52 ratio
UUUGUUUUUGUAACUUAUCUGUAAAAGUCCCCCCCCCUACUGUCAAAAAAUAUGCAUGUAUAGUAAUUAGGACUUCAUUCCUCCAUGUUUUCUUCCCUUAUCUUACUGUCAUUGUCCUUA	1.84 ratio
GAUAAGAAAAGCUUGUUGGAGACCCGCUUGCAUGUCACUGGCAGAGACCUGAGGUGUCAAAUAGCUGAAACUUUCGGAUUUCAAGAAAAUUAUAUCAAGAUCGUAAUAAAUAAGAAACAG	0.385 ratio
GGACAUCUGUCAAAUUGUUAUGUUCCUGUGAAACAAGUGAGCACUUUGAUACACUUCAUCUGCUUGUACAUCUGUAUGAUAGAGAAACAGAAAUCUAUUAAUCCAAGCAAUGUGUCACUU	0.164 ratio
GCGGCAGAAUCAUGGUGGACAUAAUGCAGCUCCCCAAAGCGCGCGUCAACGCCAGCAUGCUAGCUCAGUAUAUCGACCGGCCCGUGUGCUUCGUGGGGAAGCUGGAAAAGAUUCAUCCCA	0.0997 ratio
AUUGUUGAAGCGAAUCCACUCCUAGAAGCCUUUGGAAAUGCAAAGACUGUUCGCAACAAUAAUAGCAGUCGAUUUGGAAAAUUUGUAGAAAUUCAUUUCAAUGAAAAGAGUUCGGUUGUU	0.355 ratio

Set 5
Target: Histone acetyltransferase KAT6A, winged helix 2, GST fusion (KAT6A, Homo sapiens, UniProt Q92794, residues 85-181)
Method: protein binding microarray
Form: double-stranded DNA, one strand shown
Sample: in vitro
Tested at: not given
Notes: 8-mer, flanks averaged, mean of 2 arrays, mostly near background
Baseline: not given
Direction: higher = stronger binding
Residues (chain): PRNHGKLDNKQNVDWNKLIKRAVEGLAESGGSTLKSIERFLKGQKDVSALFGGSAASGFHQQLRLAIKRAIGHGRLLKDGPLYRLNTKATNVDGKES
Oligonucleotide	E-score
CGCCTTGC	0.0269
CCCCTCAC	0.125
CATAACCA	-0.0833
ACTCGAGG	0.0167
CCGCTAAA	-0.0647
GGCAGTTA	-0.0391
CCTCGCGC	0.0575
GAGTGTCA	0.0902
CAATCCTG	0.0594
CGTTGCTC	0.101
TGGGCGAA	0.202
CTCTTGTA	-0.232
ATAGCTGG	0.00049
AACCTGTG	-0.158
ATTGCGGC	0.0168
ATGCGTTA	0.0428
ACTCGCAG	0.0864
GCATAACC	-0.114
AAGCTTGT	0.0437
ATCCGGTA	-0.021
CCGGAATA	0.0797
ATGCCACA	-0.0186
AATAGACC	-0.0153

Set 6
Target: Sal-like protein 4, full length isoform B (SALL4, Homo sapiens, UniProt Q9UJQ4-2, residues 1-616)
Method: universal PBM
Form: double-stranded DNA, one strand shown
Sample: in vitro
Tested at: not given
Notes: 8-mer, flanks averaged, mean of replicates
Direction: higher = stronger binding
Residues (chain): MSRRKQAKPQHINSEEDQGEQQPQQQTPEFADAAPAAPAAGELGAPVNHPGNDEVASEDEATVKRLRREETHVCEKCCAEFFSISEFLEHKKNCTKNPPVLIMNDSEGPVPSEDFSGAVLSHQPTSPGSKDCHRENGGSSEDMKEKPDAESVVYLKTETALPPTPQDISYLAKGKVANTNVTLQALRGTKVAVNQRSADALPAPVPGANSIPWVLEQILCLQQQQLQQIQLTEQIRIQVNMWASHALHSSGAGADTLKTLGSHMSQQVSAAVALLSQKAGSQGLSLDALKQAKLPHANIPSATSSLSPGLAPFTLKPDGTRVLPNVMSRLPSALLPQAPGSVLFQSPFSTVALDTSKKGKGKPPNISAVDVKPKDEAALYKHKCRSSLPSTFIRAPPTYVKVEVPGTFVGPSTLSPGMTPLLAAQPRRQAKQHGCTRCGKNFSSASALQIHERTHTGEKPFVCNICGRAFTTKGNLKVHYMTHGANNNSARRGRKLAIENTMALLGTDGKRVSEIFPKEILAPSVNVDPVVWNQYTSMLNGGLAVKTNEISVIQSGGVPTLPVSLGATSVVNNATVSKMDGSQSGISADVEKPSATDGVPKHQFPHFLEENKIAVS
Oligonucleotide	E-score
AGCCCATA	0.0673
AAGTCAAT	0.193
CTATAACA	0.287
AACCCGTG	-0.268
GATTGAGA	0.0966
GAATACAA	0.261
CAAGAGCC	-0.135
AGCAATCA	0.092
CCCTCCAA	-0.255
CTTTATCA	0.241
GCGGTGGA	-0.236
CCCCCGGA	-0.264
AAATAGGG	0.185
AGGAGCAT	0.0238
GAAATGTC	0.0459
CTTACTTC	0.0874
AAATCATA	0.363
